# Assay results from different studies.
# Compare with care: the assays were run in different laboratories. Several values in a cell are separate wells, animals, samples, runs or records.
Structure (SMILES),cell line,assay,setting,how to read,quantity,value
CC(C)(Nc1nc(N2CCNCC2)nc2ccccc12)c1ccccc1,Vero-E6,CellTiter-Glo ATP,"concentration not given, 72 h, retest 8-point duplicates","relative to: DMSO 0%, hyamine -100%, more negative, more toxic",cytotoxicity efficacy,0%
CC(C)C[C@@H](NC(=O)[C@H](N)CCCCN)C(=O)N[C@@H](C(=O)N[C@H](Cc1ccccc1)C(=O)N[C@H](Cc1ccccc1)C(N)=O)C(C)C,NGF-differentiated PC-12 neurons,,"40 µM, 24 h",relative to: untreated,viability,100%
CC(C)C[C@H](NC(=O)[C@H](C)NC(=O)[C@@H](NC(=O)[C@H](CCCNC(=N)N)NC(=O)[C@H](CC(C)C)NC(=O)[C@H](Cc1c[nH]c2ccccc12)NC(=O)[C@@H]1CCCN1C(=O)[C@@H](N)CCCCN)C(C)C)C(=O)N[C@@H](CS)C(=O)N1CCC[C@H]1C(=O)NCC(=O)O,HEp-2,WST-1,"16 µM, 24 h",,viability,94.8% and 96.8% and 101%
O=c1ccc2ccccc2o1,NHEK,cell count,"concentration not given, 24 h, NRF2 oxidative stress panel",,chance response,0.01%
Cc1cc(C)cc(-c2ccc(CN3CCCC3C(=O)NCc3cccc(F)c3)cc2)c1 (stereo not drawn),Vero-E6,CellTiter-Glo ATP,"72 h, retest 8-point duplicates","relative to: DMSO 0%, hyamine -100%, more negative, more toxic",maximum response,-26.7%
CC(C)C[C@@H](NC(=O)[C@H](N)CCCCN)C(=O)N1CCC[C@@H]1C(=O)N[C@H](Cc1ccccc1)C(=O)N[C@H](Cc1ccccc1)C(=O)N[C@H](C)C(N)=O,NGF-differentiated PC-12 neurons,,"160 µM, 24 h",relative to: untreated,viability,89.2%
CCN(CC)Cc1ccc(Nc2ccnc3cc(Cl)ccc23)cc1O,Vero-E6,CellTiter-Glo ATP,"concentration not given, 72 h, second round 5-point","relative to: DMSO 0%, hyamine -100%, more negative, more toxic",cytotoxicity efficacy,0%
CC(C)C[C@@H](N)C(=O)N1CCC[C@@H]1C(=O)N[C@H](Cc1ccccc1)C(=O)N[C@H](Cc1ccccc1)C(=O)N[C@H](C)C(=O)N[C@H](CCC(=O)O)C(N)=O,NGF-differentiated PC-12 neurons,,"10 µM, 24 h",relative to: untreated,viability,99.5%
O=NN1CC2CC(C1)c1cc3nccnc3cc12,TK6,,"10 µM, 4 h, added: hamster liver S9",relative to: vehicle,relative survival,112%

# A few entries again:
Structure (SMILES),cell line,assay,setting,how to read,quantity,value
CC(C)(Nc1nc(N2CCNCC2)nc2ccccc12)c1ccccc1,Vero-E6,CellTiter-Glo ATP,"concentration not given, 72 h, retest 8-point duplicates","relative to: DMSO 0%, hyamine -100%, more negative, more toxic",cytotoxicity efficacy,0%
